# Experimental data collected from several papers.
# Each line is one published result; not all experiments were run side by side.
SMILES,test,system,conditions,scale,measurement,value
O=C(COc1ccc(Cl)cc1)NC12CC(c3nnc([C@H]4C[C@@H](OC(F)(F)F)C4)o3)(C1)C2,,humans,200 mg once daily,,TEAE leading to discontinuation,14.3%
CCO,,human,concentration not given,,TEAE of CTCAE grade ≥3,0%
C=CC(=O)N1CCC([C@@H]2CCNc3c(C(N)=O)c(-c4ccc(Oc5ccccc5)cc4)nn32)CC1,,healthy human volunteers,"oral, dose not given",,TEAE constipation,4.7%
CC(C)c1nc(N(C)S(C)(=O)=O)nc(-c2ccc(F)cc2)c1/C=C/[C@@H](O)C[C@@H](O)CC(=O)O,,healthy human volunteers,"oral, 10 mg, 6 days, monotherapy",relative to: subjects,TEAE discontinuation incidence,0%
CCCn1cc(C)c2c(=O)[nH]c(-c3cc(S(=O)(=O)N4CCN(CC)CC4)ccc3OCC)nc21,,human,concentration not given,,TEAE leading to withdrawal,0%
C[C@H](O)C(=O)C1=Nc2c(nc(N)[nH]c2=O)NC1,,healthy human volunteers,"oral, 20 mg/kg, 4 days, monotherapy",relative to: subjects,TEAE discontinuation incidence,0%
CN1C(=O)[C@@H](NC(=O)c2nnc(Cc3ccccc3)[nH]2)COc2cccnc21,phase I single ascending dose,"human, male and female","oral, 800 mg, fasted",,TEAE leading to permanent discontinuation,0%
C[C@@H](c1nc(-c2ccc(C#N)cc2)cs1)[C@](O)(Cn1cncn1)c1cc(F)ccc1F,measured: general and administration site disorders,healthy human,"oral, 200 mg, 13 days, study",,TEAE incidence,11.1%
Cc1cc(C)c(CNC(=O)c2cc(Cl)c3c(c2C)O[C@@](C)([C@H]2CC[C@H](N(C)C)CC2)O3)c(=O)[nH]1,CTCAE v4.0,"human, relapsed/refractory NHL","oral, 200 mg once daily, onset after cycle 1 day 1",,TEAE with dose interruption,62.5 % patients
